Measured values pooled from the literature.
Numbered parts are unrelated; each lists some results of a single study.

Block 1 — technique: RNA Bind-n-Seq; molecule type: RNA; matrix: in vitro; concentration: 200 nM; notes: whole 134-nt RNA, ends assumed; added: 150 mM KCl; baseline: input library; reading: higher = stronger binding
Target: Ras GTPase-activating protein-binding protein 1, full length (G3BP1, Homo sapiens, UniProt Q13283)
UniProt Q13283, sequence (whole entry, looked up): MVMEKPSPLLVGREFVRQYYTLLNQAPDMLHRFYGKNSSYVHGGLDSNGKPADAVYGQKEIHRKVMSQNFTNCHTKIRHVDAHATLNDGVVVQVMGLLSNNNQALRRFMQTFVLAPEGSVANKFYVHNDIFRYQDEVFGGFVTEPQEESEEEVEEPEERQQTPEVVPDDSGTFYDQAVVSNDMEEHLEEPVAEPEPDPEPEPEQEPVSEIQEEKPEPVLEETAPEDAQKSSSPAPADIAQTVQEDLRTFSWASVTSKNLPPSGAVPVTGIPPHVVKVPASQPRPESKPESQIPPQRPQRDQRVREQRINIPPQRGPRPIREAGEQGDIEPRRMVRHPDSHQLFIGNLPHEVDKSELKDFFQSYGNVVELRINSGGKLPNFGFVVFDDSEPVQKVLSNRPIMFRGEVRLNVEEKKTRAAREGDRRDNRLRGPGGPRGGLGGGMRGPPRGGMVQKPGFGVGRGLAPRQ
Shared flanks, not repeated: GGGAGUUCUACAGUCCGACGAUC … UGGAAUUCUCGGGUGUCAAGG
Sequence | log2 enrichment
GUCCUGUGCUACACAUCGUAUGUACCGAAUCGGGAAAAAAAGGGUUUGGGAAAAAGGGAAAGUAUUAUGUUACGCCGUUCGGAUCUGCAC | -0.639
CACAGACAACACGGACCCACACAGACACAGAGGGAAGGGGUUGGGAUGGGGACAGGGUGCACAGCAGGGCGGGGUAGGACCCCAGCCCCU | 2.04
UCAAGUCCUGUGCUACACAUCGUAUGUACCGAAUCGGGUUUGGUUUGGGUUUGGAAAGUAUUAUGUUACGCCGUUCGGAUCUGCACUUCC | -0.723
CUCAAGUCCUGUGCUACACAUCGUAUGUACCGAAUCGGUUGGGGUUGGGUUGGAAAGUAUUAUGUUACGCCGUUCGGAUCUGCACUUCCA | -0.133
GUCCUGUGCUACACAUCGUAUGUACCGAAUCGGGCCCCCGGGGCCCCCGGCCCCCGGGGAAAGUAUUAUGUUACGCCGUUCGGAUCUGCA | -0.961
CCUGUGCUACACAUCGUAUGUACCGAAUCGGGGUUUUUGGGGUUUUUGGGGAAAAAGGGGAAAGUAUUAUGUUACGCCGUUCGGAUCUGC | 0.106
CCUCAAGUCCUGUGCUACACAUCGUAUGUACCGAAUCGGGGUGGGUGGUGGGGAAAGUAUUAUGUUACGCCGUUCGGAUCUGCACUUCCA | 0.972
UAACUUUAGAGGAGGAUCUUAUGGAUAUGGCAGUGGACGUGGAUUUGGGGAUGGCUAUAAUGGGUAUGGAGGAGGACCUGGAGGUGGCAA | 0.316
CUCAAGUCCUGUGCUACACAUCGUAUGUACCGAAUCGGUUUGGAGGAAAAAGGAAAGUAUUAUGUUACGCCGUUCGGAUCUGCACUUCCA | -0.243
UGGGAGGUGGAGUUUGUUUAUUUUUUUAGCUCAUUUCCAGGGGUGGGAAUUUUUUUUUAAUAUGUGUCAUGAAUAAAGUUGUUUUUGAAA | 0.0958
ACCAUGCAGGUGGGCAUCUUUGGGAAGUGGGGCAAGGGGGGGAUAGGGAGGGGGGUAACACUUUGGGAACAAAUGGUCCCAGGUCGUUUC | 0.959
UGGAGCCCAACCUGUGCCGCUCAGUCCUCAUUGCCAACACGGUCCGGCAGAUCCAAGAGGAGAUGACGCAGGAUGGGACGUGGCGCACAG | -0.836
CAAGUCCUGUGCUACACAUCGUAUGUACCGAAUCGGAAAAAAAGGUUUGGUUUGGAAAGUAUUAUGUUACGCCGUUCGGAUCUGCACUUC | -1.13
ACCAUGAAAGUGGGCAUCUUUGGGAAGUGGGGCAAGGGGGGGAUAGGGAGGGGGGUAACACUUUGGGAACAGGUGGUCCCAGGUCGUUUC | 0.762

Block 2 — technique: protein binding microarray; molecule type: double-stranded DNA, one strand shown; matrix: in vitro; concentration: not given; baseline: not given; reading: higher = stronger binding
Target: Histone acetyltransferase KAT6A, winged helix 2, GST fusion (KAT6A, Homo sapiens, UniProt Q92794, residues 85-181)
Notes: 8-mer, flanks averaged, mean of 2 arrays, mostly near background
Residues (chain): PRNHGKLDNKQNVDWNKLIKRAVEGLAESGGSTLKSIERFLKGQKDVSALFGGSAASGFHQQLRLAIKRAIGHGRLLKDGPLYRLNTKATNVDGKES
Sequence | E-score
ATTCTTAC | 0.0163
GGAAGTCC | -0.106
AGAAATGG | -0.184
AGGATCAC | 0.0153
TCATTTAA | -0.0377
CCGAGCTC | 0.0113
ATTGATCG | 0.105
ATCCTACC | -0.0978
CTCAGGAC | 0.0204
AACTTTGG | -0.0713
AGACTGAG | 0.0453
CATACTGG | 0.0233
CCACGACG | 0.118
GAGGCTTA | 0.033
CCTATTCG | -0.0622
ATCAATTC | 0.0996
GTTCAAAC | -0.011
ACCGATAG | -0.0855
CGTAAATA | 0.0545
AGACTAAC | -0.273
AAAAAAAG | 0.267
AGATCCTA | -0.0701
GTGACAAA | -0.0134
AACCCATT | -0.0974
AACGCACA | 0.116

Block 3 — technique: RNA Bind-n-Seq; molecule type: RNA; matrix: in vitro; concentration: not given; notes: RNA with constant flanks, ends assumed; baseline: input RNA pool; reading: higher = stronger binding
Target: RING finger protein unkempt homolog, zinc fingers 1-6, GST-SBP tag (UNK, Homo sapiens, UniProt Q9C0B0, residues 30-357)
UniProt Q9C0B0, sequence (30-357, looked up): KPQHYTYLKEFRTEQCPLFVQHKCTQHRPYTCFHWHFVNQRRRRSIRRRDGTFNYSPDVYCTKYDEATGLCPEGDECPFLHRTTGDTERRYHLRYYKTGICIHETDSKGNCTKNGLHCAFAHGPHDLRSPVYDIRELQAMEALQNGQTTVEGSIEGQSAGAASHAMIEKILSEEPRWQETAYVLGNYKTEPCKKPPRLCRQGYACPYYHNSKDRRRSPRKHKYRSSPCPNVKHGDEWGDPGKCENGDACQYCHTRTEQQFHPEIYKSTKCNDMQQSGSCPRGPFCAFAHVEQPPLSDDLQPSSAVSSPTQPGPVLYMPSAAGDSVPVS
Shared flanks, not repeated: GGGAGUUCUACAGUCCGACGAUC … CAACAGAGGAUUGAGCAUCA
Sequence | bound/input enrichment
CAUUUCUAUAUUUGUACAUUUUCAUUUAUGAGUUCUAUGAUGUGGUCUCUGAAAGACCAAACCGAUUUCUAUUUCUACUUCUUAUUUUUAAGUUCAUUGUGUCUACAAAUUGUUAAUAUU | 1.23 ratio
AGGCUCAUCCAGCCAUAUAUCCAUAACUACUCCUGGCUGCUCUUUGCUGCCCUGGCUCUCUACCGCGCCCACCUGGCCAGUGCAGAGGAUGUGGAUGGGGAGAAGCUGGACCCCCAGACG | 0.228 ratio
GUGGAGAGAGAACUUGUUGAGAAAGAGUUAUUAGAAAAAGUUAAACAUCUUGAGAAUCAAACCGCCAAAACUCCUGCCUUUGAGUCAGCCAGAGAAGAUUCUUCAAGCUUAGUUGCGGAA | 3.79 ratio
CCUCCUUAUGCAAACGGUGACCCUCAUGUUGGACAUGCUUUAAAUAAGAUUUUGAAAGACACCGCCAAUCGAUUCCAUAUGAUGAAUGGCUCCAAAAUACAUUUUGUGCCCGGCUGGGAU | 0.222 ratio
AGAGAGAGAAAAACUAGUAAAGGCUGAAAGAAAAUUCAUUGAAGAUAGAGUUAAAAAAAUCACCGAGCUGAAAAAGAAAGUCUGUGGUGACUCAGAUAAAGGAUUUGUCGUUAUUAAUCA | 2.44 ratio
CAUCUGCGUCACCACAUAUGUGCUGAACUUCCUCCUCCUCAUCAUCAAUUACAAACGACCCGUUUAUUUGAAUGAGGCCUGGAAGCGACAGCUGCAGCCUAAGGAAGACUGAUGGCCAGC | 0.1 ratio
AUUAAGCAGAGGACUAAGUUGGAGCUUAAAGCCAAGGAUUUACAAGAUGAACUAGCAGGCAACCGUGAACAAAGGAAACGUUUAUUAAAAGAGAGGCAGAAGCUGCUUGAAAAAAUAGAA | 0.612 ratio
UGCUUAAUGUAUUAGACAUUUUUAGCCCAUAAUUAAAACAUUGUUGCUUUUACACAGGUGCCGUUUGGUGCAUUUCAUUCAUAGUGUUUUAAAGUUAUUUAUAAAUUAACCAAUUACACU | 8.35 ratio
ACAGCCCCGUGGGUGUGUGGGAGGCCGGGCGCUCUGGGGUCUGUCUGUCAGUGCAAUCGUUCCGUGUUUUUUCAGUGGGGCGGGGCGGGAAGCGGGUGGGACCGGGCAGCCAGUUCUCAA | 0.368 ratio
AAACUGACAGAAGUUGACAAUUAUCAUUUUUACUCAUCUAUACCCUCAAUGGAAAAAGAAGCCGGUAACUGUAGUCCACAUUUUCUUAAUGCUUUUGAGGAUUCCUUCAGCAGCAUCCUC | 0.448 ratio

Block 4 — technique: RNA Bind-n-Seq; molecule type: RNA; matrix: in vitro; concentration: 365 nM; baseline: no-protein control; reading: higher = stronger binding
Target: RNA binding protein fox-1 homolog 2, RRM domain, GST-SBP tag (RBFOX2, Homo sapiens, UniProt O43251-10, residues 100-194)
Notes: natural RNA segment, single round, ends assumed
Shared flanks, not repeated: GGGAGUUCUACAGUCCGACGAUC … UGGAAUUCUCGGGUGCCAA
Sequence | RBNS enrichment (R)
CCCCAGUGUGAGUGGUCUCCAUGGCAGUUUGGAGCCAACGAGGAUCGGGAGGGGAGCAGUAGCACUAUGGGAGGGAGAGAGGCCUUCCAUAGCCUCCUCCCCAGGACCUG | 0.892
CAGGGCUAGGAGGGAGGAGCCUGCCCUUUUAACAGAACCCCAGUCACAUGCGGCUCAAGUCACUCAGAGGCUGUUGCAUUUCAGGGCUAUGUUGGUCCUUUGUUUACCUC | 0.892
UGCUCUUUGACUUGGUUUCUUCUUGCUCCCAUAUCAUCAAAUAUUGGAGCCUAUAAUUUUUUUACCUUACAUUUUAGGUAGAAACCAAAUAAAAGAUUUUGCUAAGAAGA | 0.426
CUUUGACCUCCCAGAGGGCUGAACUCUUUCAACUCUGCGCUGCCCAGCCUUCUCAGUGGACUUGCCCCUCCUAAGCAGAGAAGGCCUAUGAGGUUGCUUGCUGCUGGGAA | 0.465
AAAAAAAUGUGCCUCUGGUGAAUUAUCCAUCCUUUUUUUAAAAUGUUAAACUGGUCUUUGAGAAAAGAAUAGUGCAGAUAAGAGCAGCCAAGGACUUCAAAGCUUGUUGA | 0.826
AGUGUUAAAGCACUUAAUCCAAAUUAGCCCAUCUUUAACUGUUUUGAAAAAUCUAUAUUUAUUAAAGGUAGUAGACAUUUGAAUAUAGUAAUCAAAUUAACUGAUUUUGU | 0.822
GAAUUUAUAUGUUUUUAGCUUUAGUAUUUAACCUUUUAUAACAAAUAAACCAUUUUUUAAAAAAACAGUUCAAUGAAGUGUUCUGUAGUUAUUUCAUCUGGAUGUUGAUU | 1.42
CAGCCACCCCUCCCGCUCGUGCACAGGCACGCAGAUGCGCUCACACGUACACACACACAAAUGCACGCCCACUUGCACAUGCUCACGCACAUGUUCACACAUGCACACUC | 1.25
CUGACUACUAGACUGUAAGUGUGUUUUAUACAAGUGUGUAAGACUAAGACUCACGUGCACGAAUCGAAGAGUAAAGAGACAAUACUUGUGAACGUGUGAACGUUAACACU | 1.58
UGAACAUAUCAAAUAUAAAUUUUUUUAAAGAUCUAACUGUGAAAACAUACAUACCUGUACAUAUUUAGAUAUAAGCUGCUAUAUGUUGAAUGGACCCUUUUGCUUUUCUG | 0.421
UGAUAUAUAUCACACCCAGGUAUCACUGUGCUGUCCUUUGCUGUCAGAUUUAGAAAUGUUUUUAAGAGCUAUGUGAAAACAGACAAUAUUAGUUUAGGUCGGGAACUGAG | 0.76
UAAAACAUUUUAUGUUUUUUAGAUGCUUUAUUAAAUACAUGGCCAAACCAAAUAACAUCUUUCAGUAAUUAUAGAAUGAUUUAUUUGGAAUAAAAUUUGUGCUUAUGAAU | 0.555

Repeated from above (block 2):
Sequence | E-score
AACCCATT | -0.0974
AACGCACA | 0.116
AGATCCTA | -0.0701
AGGATCAC | 0.0153
AGACTAAC | -0.273
GTTCAAAC | -0.011
ATTCTTAC | 0.0163
CTCAGGAC | 0.0204
